Assay results of several laboratories.
Lines come from different studies, so protocols differ. Numbers after ± are the reported error.
Alpha-carbonic anhydrase: Alpha-carbonic anhydrase (Enterococcus faecium, UniProt Q3XYE8)
PLEKHA5 PH domain: Pleckstrin homology domain-containing family A member 5, PH domain (PLEKHA5, Homo sapiens, UniProt Q9HAU0)
Sequence of UniProt Q9HAU0 (whole entry, looked up): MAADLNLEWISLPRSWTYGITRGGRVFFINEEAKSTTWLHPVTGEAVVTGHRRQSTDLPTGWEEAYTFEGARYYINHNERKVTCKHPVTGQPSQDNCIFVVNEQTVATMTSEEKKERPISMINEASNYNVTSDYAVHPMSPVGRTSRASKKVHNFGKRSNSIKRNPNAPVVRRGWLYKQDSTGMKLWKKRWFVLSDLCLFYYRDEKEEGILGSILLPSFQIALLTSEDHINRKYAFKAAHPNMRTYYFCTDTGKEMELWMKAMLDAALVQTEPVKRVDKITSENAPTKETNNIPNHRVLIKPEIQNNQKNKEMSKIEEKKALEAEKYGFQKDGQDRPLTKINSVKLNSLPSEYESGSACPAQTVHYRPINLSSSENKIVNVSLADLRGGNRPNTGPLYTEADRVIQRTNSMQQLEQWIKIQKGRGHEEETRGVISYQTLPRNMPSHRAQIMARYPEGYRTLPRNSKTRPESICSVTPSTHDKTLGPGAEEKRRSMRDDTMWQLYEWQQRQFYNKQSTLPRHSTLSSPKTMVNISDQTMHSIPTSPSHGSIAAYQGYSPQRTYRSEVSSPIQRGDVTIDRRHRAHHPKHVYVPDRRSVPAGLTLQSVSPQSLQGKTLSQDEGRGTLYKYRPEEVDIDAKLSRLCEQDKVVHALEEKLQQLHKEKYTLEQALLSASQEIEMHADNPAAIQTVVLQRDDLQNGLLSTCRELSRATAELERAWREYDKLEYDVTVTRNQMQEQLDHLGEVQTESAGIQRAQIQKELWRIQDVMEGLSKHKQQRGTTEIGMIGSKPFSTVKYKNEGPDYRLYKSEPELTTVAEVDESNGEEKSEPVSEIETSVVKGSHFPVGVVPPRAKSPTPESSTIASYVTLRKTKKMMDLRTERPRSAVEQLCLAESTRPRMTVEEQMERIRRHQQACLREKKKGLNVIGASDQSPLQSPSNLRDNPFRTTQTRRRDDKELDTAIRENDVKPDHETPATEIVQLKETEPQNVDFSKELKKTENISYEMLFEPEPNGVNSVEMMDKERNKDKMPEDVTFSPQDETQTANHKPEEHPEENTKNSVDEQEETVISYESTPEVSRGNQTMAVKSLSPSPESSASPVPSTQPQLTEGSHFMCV
CNR2: Cannabinoid receptor 2 (CNR2, Homo sapiens, UniProt P34972)
Sequence of UniProt P34972 (whole entry, looked up): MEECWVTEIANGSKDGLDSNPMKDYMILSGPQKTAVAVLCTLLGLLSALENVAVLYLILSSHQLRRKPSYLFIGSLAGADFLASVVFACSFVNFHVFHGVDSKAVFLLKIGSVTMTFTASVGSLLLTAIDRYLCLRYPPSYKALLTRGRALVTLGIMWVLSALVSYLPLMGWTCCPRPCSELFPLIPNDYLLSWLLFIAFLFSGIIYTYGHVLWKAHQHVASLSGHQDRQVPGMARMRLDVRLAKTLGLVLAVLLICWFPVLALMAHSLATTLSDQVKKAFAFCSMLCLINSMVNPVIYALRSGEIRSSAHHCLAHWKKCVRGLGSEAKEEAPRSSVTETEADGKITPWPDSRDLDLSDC
Sequence of UniProt P08684 (whole entry, looked up): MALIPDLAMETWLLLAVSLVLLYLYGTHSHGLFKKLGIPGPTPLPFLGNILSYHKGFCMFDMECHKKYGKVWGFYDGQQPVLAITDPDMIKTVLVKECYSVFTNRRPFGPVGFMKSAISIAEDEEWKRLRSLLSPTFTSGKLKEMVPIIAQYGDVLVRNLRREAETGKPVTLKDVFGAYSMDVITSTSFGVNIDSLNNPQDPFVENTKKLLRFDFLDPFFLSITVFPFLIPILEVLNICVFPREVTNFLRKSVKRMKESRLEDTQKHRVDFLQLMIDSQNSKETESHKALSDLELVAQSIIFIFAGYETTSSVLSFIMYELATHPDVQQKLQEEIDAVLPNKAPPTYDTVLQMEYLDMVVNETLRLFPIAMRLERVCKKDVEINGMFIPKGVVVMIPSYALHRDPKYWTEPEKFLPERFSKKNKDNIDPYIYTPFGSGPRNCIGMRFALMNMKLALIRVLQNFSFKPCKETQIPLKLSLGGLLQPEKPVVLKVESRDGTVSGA
Sequence of UniProt P52790 (whole entry, looked up): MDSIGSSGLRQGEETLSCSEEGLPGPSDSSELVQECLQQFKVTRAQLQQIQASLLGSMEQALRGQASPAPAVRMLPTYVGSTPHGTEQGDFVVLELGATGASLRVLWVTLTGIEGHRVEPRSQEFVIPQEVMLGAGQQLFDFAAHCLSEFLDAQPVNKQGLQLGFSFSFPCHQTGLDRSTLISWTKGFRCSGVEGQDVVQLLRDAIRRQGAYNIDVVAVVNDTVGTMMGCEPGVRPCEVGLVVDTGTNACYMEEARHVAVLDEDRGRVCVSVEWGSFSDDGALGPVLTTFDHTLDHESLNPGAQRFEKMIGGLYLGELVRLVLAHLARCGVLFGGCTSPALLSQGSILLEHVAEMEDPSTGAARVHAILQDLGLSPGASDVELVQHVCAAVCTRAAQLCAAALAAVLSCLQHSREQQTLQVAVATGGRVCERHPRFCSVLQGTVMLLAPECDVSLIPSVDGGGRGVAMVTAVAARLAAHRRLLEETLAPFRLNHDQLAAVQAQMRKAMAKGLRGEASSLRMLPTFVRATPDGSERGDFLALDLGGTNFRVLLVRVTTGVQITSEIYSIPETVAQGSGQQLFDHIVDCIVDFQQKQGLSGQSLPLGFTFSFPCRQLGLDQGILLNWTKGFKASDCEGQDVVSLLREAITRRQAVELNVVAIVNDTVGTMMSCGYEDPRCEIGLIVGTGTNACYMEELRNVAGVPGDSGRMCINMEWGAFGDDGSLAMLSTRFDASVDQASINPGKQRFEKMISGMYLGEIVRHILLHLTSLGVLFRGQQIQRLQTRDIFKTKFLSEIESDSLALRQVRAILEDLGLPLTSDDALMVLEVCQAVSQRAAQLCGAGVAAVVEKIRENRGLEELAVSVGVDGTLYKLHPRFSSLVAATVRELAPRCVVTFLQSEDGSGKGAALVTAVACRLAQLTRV
Sequence of UniProt Q9UHM6 (whole entry, looked up): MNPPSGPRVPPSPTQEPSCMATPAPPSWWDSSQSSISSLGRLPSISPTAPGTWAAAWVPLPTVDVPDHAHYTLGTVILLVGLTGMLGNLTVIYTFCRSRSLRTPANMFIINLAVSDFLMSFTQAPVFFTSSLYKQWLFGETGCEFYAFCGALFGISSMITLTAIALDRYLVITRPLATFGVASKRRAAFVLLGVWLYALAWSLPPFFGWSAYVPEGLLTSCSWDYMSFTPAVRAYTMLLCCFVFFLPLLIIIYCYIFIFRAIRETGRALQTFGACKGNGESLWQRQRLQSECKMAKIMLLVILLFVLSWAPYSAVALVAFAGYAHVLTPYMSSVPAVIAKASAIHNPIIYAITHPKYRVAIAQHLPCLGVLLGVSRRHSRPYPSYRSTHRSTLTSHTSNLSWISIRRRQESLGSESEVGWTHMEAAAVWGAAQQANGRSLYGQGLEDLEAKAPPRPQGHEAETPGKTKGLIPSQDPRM

SMILES | target | assay | system | setting | Ki [µM]
Cc1ccc(CCC(=O)Nc2nnc(S(N)(=O)=O)s2)cc1 | Alpha-carbonic anhydrase | CO2 hydration, inhibitor, stopped-flow kinetics |  |  | 0.0316
N#Cc1ccc(COc2cccc(C3CCN(Cc4nc5ccc(C(=O)O)cc5n4C[C@@H]4CCO4)CC3)n2)c(F)c1 | chloride channel |  |  |  | 2.9
COc1ccc(F)cc1C(=O)NCc1ccc(-c2nn([C@@H](C)C(F)(F)F)c(N)c2C(N)=O)cc1 | Cytochrome P450 3A4 (CYP3A4, Homo sapiens, UniProt P08684) | reversible inhibitor | human liver microsomes |  | 25.2
NS(=O)(=O)c1nnc(NC(=O)COC2CCC(F)(F)CC2)s1 | Alpha-carbonic anhydrase | CO2 hydration, inhibitor, stopped-flow kinetics |  |  | 0.0108
CCOc1ccc(C(=O)CC(SCc2ccc(OC)cc2)C(=O)O)cc1 (centres unmarked) | PLEKHA5 PH domain | PLEKHA5 PI(4,5)P2 binding, fluorescence polarization |  | with: BODIPY-PI(4,5)P2 tracer | 90 ± 13
O=c1n(CCCN2CCN(c3cccc(Cl)c3)CC2)nc2ccccn12 | CNR2 |  |  |  | > 10
CCOc1ccc(C(=O)CC(SCc2ccccc2)C(=O)O)cc1 (centres unmarked) | PLEKHA5 PH domain | PLEKHA5 PI(4,5)P2 binding, fluorescence polarization |  | with: BODIPY-PI(4,5)P2 tracer | 89 ± 22
NS(=O)(=O)c1nnc(NC(=O)C2CC23CCCCC3)s1 (centres unmarked) | Alpha-carbonic anhydrase | CO2 hydration, inhibitor, stopped-flow kinetics |  |  | 0.0713
O=C(O)c1ccc(Cn2ccnc2)o1 | WDR5 (Homo sapiens, UniProt P61964) | fluorescence polarization competition |  | with: 10mer-Thr-FAM peptide | > 5
CCOc1ccc(C(=O)CC(SCc2cccc(Br)c2)C(=O)O)cc1 (centres unmarked) | PLEKHA5 PH domain | PLEKHA5 PI(4,5)P2 binding, fluorescence polarization |  | with: BODIPY-PI(4,5)P2 tracer | 12.6 ± 0.7
NS(=O)(=O)c1nnc(NC(=O)C2CC23CCCOC3)s1 (centres unmarked) | Alpha-carbonic anhydrase | CO2 hydration, inhibitor, stopped-flow kinetics |  |  | 0.0573
C#CCOc1cccc(C(=O)CC(SCc2cccc(Br)c2)C(=O)O)c1 (centres unmarked) | PLEKHA5 PH domain | PLEKHA5 PI(4,5)P2 binding, fluorescence polarization |  | with: BODIPY-PI(4,5)P2 tracer | 10.5 ± 1.9
COc1cc(Cl)c(S(=O)(=O)N2CCCCC2)cc1Cl | Melanopsin (OPN4, Homo sapiens, UniProt Q9UHM6) | binding, radioligand binding | CHO membranes expressing OPN4 | with: [3H]-labelled ligand | 0.00048
Cc1ccc(S(=O)(=O)n2cc(/C=N/NC(=S)Nc3ccc([N+](=O)[O-])cc3)c3ccccc32)cc1 | mushroom tyrosinase | inhibitor |  | with: L-DOPA | 3.42 ± 0.03
CCOc1ccc(C(=O)CC(SCc2ccccc2Br)C(=O)O)cc1 (centres unmarked) | PLEKHA5 PH domain | PLEKHA5 PI(4,5)P2 binding, fluorescence polarization |  | with: BODIPY-PI(4,5)P2 tracer | 19.4 ± 2.7
CCOC(=O)[C@H](CCSC)NC(=O)c1ccc(C2CC2)c(Cc2ccc(F)cc2)n1 | CNR2 | binding |  |  | 0.012
Cc1ccccc1C(=O)Nc1nnc(S(N)(=O)=O)s1 | Alpha-carbonic anhydrase | CO2 hydration, inhibitor, stopped-flow kinetics |  |  | 0.0089
CCOC(=O)c1cc(-c2ccc(OCC)cc2)oc1-c1ccc(Cl)cc1 | PLEKHA5 PH domain | PLEKHA5 PI(4,5)P2 binding, fluorescence polarization |  | with: BODIPY-PI(4,5)P2 tracer | > 100
Cc1ccc(CC(=O)Nc2nnc(S(N)(=O)=O)s2)cc1 | Alpha-carbonic anhydrase | CO2 hydration, inhibitor, stopped-flow kinetics |  |  | 0.0694
OC[C@H]1OC(O)[C@H](O)[C@@H](O)[C@@H]1O (some centres unmarked) | Hexokinase-3 (HK3, Homo sapiens, UniProt P52790) | enzyme activity, substrate inhibitor, coupled G6PDH |  | complete inhibition model, with: ATP 20 mM | 11000 ± 2000
